Experimental data collected from several papers.
Numbered parts are unrelated; each lists some results of a single study.
Sequence of UniProt P49674 (whole entry, looked up): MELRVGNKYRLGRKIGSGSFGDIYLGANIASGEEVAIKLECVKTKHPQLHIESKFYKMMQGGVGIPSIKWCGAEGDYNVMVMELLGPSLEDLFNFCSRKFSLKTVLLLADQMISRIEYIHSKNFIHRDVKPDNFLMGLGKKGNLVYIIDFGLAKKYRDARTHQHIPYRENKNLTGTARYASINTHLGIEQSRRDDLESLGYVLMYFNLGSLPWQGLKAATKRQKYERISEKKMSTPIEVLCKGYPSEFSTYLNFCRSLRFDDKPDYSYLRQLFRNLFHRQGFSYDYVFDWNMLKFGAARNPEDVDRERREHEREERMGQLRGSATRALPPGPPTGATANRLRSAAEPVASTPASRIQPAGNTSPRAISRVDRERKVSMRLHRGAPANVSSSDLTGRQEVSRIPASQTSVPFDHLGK
Sequence of UniProt P57059 (whole entry, looked up): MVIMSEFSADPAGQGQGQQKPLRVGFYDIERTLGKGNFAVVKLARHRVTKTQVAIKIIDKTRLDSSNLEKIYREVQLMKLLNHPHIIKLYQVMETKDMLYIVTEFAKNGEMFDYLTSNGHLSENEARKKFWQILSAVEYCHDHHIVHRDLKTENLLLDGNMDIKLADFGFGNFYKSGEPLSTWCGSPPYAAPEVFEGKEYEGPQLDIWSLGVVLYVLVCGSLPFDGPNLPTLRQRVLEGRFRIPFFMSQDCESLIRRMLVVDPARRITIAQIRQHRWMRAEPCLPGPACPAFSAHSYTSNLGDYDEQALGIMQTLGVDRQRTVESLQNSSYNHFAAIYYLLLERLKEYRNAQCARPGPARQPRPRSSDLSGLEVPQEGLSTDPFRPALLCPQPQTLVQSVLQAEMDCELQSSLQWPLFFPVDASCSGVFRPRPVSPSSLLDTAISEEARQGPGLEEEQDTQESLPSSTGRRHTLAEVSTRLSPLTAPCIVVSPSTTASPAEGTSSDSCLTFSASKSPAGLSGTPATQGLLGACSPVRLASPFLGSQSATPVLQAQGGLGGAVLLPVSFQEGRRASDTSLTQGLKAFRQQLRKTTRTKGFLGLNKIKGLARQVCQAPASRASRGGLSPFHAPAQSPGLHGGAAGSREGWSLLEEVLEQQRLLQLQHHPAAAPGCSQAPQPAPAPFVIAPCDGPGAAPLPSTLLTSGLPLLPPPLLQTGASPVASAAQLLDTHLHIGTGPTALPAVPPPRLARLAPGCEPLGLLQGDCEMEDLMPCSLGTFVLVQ
Sequence of UniProt P07949 (whole entry, unmodified, looked up): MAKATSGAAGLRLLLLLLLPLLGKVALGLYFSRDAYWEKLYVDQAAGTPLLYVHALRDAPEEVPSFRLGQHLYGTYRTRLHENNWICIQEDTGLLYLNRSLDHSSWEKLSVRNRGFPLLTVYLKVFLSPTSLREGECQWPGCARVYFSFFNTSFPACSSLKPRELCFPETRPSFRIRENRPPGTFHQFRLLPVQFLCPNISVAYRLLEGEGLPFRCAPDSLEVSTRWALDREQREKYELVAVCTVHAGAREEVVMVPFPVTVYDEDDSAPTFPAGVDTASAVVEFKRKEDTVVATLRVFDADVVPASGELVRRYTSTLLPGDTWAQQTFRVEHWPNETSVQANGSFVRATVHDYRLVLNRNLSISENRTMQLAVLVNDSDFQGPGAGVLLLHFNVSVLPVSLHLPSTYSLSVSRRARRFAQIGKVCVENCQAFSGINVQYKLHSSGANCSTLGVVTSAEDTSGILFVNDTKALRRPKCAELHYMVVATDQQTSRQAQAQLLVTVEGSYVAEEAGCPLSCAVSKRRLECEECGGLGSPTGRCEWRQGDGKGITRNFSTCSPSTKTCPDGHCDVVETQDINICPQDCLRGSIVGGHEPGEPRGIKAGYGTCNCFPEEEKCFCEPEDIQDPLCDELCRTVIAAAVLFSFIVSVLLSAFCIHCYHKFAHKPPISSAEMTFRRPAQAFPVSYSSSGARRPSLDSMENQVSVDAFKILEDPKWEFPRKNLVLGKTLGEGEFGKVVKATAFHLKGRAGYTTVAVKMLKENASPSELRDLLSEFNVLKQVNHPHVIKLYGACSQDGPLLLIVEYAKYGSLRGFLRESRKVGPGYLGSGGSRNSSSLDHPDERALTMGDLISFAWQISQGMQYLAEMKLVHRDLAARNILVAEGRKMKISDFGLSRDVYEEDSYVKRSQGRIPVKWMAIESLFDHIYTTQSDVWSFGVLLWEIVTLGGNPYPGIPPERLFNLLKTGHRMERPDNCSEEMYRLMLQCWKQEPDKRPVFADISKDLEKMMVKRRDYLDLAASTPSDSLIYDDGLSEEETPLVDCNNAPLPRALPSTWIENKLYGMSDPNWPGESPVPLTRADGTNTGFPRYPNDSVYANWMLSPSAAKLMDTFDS
Sequence of UniProt Q14012 (whole entry, looked up): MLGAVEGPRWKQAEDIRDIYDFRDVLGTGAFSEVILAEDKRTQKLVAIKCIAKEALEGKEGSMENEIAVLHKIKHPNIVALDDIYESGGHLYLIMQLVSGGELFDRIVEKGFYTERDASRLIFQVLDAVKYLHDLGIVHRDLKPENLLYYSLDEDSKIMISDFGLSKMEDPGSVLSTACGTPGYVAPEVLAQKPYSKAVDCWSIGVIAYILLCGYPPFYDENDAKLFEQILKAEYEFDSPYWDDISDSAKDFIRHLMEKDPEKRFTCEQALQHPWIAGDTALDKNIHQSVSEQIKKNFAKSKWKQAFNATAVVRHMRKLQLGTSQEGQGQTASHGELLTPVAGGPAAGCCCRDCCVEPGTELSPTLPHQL
Sequence of UniProt P17948 (whole entry, looked up): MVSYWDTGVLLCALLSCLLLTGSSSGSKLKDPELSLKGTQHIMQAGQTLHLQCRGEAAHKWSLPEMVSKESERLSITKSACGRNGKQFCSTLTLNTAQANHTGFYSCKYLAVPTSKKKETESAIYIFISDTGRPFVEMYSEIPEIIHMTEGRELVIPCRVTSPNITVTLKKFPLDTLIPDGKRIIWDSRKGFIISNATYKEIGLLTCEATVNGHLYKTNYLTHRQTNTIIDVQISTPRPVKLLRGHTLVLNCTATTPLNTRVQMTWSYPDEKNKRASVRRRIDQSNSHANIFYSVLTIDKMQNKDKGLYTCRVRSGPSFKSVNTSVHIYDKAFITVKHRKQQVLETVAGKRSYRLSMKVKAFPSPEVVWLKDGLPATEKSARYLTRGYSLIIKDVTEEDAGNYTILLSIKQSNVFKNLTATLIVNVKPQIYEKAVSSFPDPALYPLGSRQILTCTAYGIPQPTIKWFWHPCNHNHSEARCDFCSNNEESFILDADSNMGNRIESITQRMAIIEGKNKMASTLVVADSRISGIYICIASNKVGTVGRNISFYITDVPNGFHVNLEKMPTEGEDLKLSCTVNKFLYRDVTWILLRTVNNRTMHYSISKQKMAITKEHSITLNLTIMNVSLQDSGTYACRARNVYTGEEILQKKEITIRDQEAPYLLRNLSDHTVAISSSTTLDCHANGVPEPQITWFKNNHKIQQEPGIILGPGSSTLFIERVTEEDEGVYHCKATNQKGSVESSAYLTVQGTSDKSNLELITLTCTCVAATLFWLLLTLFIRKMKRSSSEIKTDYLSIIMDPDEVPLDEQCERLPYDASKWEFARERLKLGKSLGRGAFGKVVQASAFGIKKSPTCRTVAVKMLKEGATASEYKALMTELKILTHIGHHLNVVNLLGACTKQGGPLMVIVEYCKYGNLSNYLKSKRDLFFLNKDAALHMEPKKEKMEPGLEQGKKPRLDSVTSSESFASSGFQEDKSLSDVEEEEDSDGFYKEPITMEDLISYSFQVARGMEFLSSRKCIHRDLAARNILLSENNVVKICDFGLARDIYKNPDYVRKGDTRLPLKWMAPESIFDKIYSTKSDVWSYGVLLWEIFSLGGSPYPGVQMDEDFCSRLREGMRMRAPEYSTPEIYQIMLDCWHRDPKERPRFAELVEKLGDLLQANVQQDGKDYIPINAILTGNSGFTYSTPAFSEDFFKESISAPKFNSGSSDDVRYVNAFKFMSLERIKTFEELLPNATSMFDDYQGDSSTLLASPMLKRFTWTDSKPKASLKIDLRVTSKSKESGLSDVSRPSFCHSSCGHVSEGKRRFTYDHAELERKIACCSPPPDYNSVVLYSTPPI

Set 1
Target: RNA binding protein fox-1 homolog 2, RRM domain, GST-SBP tag (RBFOX2, Homo sapiens, UniProt O43251-10, residues 100-194)
Method: RNA Bind-n-Seq
Molecule type: RNA
Medium: in vitro
Concentration: 365 nM
Notes: natural RNA segment, single round, ends assumed
Relative to: no-protein control
Reading: higher = stronger binding
All sequences stand within: GGGAGUUCUACAGUCCGACGAUC … UGGAAUUCUCGGGUGCCAA
Residues (chain): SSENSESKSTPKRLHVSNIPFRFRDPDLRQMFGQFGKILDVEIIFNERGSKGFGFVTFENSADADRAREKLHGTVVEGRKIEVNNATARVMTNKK
Under “RBNS enrichment (R)”, `UUCUCCCCAGGUGUACCAUUUUAGCAUAUGCAUUAUGUGAUUGGAAUUGAGGCAUUUUAGUGGACAAUAUCAUAAUUUCUAUCAUGGAAAGUGUAUUUAAUGUCUGUGUC` is recorded as 0.296.
`AAUAGAGAACUUCUAGUGUAUGGAUUUAAAGAUUUCUCUUUUUCAUUCAUAUACCAUUUUAUGAGUUCUGUAUAAUUUUUUGUGGUUUUUGUUUUGUUGAGUUAAAGUAU`: “RBNS enrichment (R)” 24.
`GGAAAGGAACCAAGUGACUCUGAUGUUUACAAAGCACCUAUGAAACCCUGUACACACCUAGUUCAUAAUCCUCAUAAUUUAUCAACAAACACAAAAAAGUGUCUUACUUG` — result for “RBNS enrichment (R)”: 0.505.
For `UGUGAGGCUCAGAUGCUGAUACCAGUAACAUUCAAAAUUAACUUCACGCAUUGAAUACAUUUAAACUGUUCAUUAGCGGAGUGAUAUUUGGACAUAAAUAUCUCGUCUUC`, “RBNS enrichment (R)” read 0.223.
`AGCCAACCCCAGCCUCCUGCCAGGAUCACCUCGGCGGUCACACUCCAGCCAAAUAGUGUUCUCGGGGUGGUGGCUGGGCAGCGCCUAUGUUUCUCUGGAGAUUCCUGCAA`: “RBNS enrichment (R)” 0.21.
For `UGACCCACCCCUUCCUGGAUCACUCCUUUGCACUCCACUCCCCUCGUUCUGUCACUUUGAACGAAGUCUGAGUGAGGCUAGUGACUCCUUGGGUGUCCUCAACAGUGAAU`, “RBNS enrichment (R)” read 0.364.
`CUGAUCCCAGGAGGCCCUGCAGUUCCCCCGACCCGCGGAUGGCAGUCUGGAAUAAAGCCCCCUAGUUGCCUUUGGCCCCACCUUUGCAAAGUUCCAGAGGGCUGACCCUC`: “RBNS enrichment (R)” 0.22.
`GAGCGACCGUGGAUGUGCCGCCAUCUCGGCUCCCAUCCUCUGAAGAUGCCGAACCCAUGGUCACUUAUAUAUUUUUUGUAAUUACUAUAUUCUAGUUUGGAGUACUUGCU`: “RBNS enrichment (R)” 1.08.

Set 2
Host: mouse
Medium: microsomes or S9
Concentration: 2 µM
Time: 0.5 h
The remaining compound of Cc1csc(C2=C(N)N(C(C)CCc3ccco3)CC2=O)n1 (centres unmarked) is reported as 2.46%.
The remaining compound of CN1Cc2ccccc2N(CCN2CCC(c3ccc(Cl)cc3C(=O)NCCN3CCN(C(=O)OC(C)(C)C)CC3)CC2)C1=O is reported as 2.93%.
CCc1nc(Cl)c2c3c(sc2n1)CC(C)CC3 (centres unmarked) has a remaining compound of 2.43%.
The remaining compound of Cc1ccc2oc(=O)n([C@H]3c4cc(Br)cnc4OC(C)(C)[C@@H]3O)c2c1 is reported as 4.47%.

Set 3
Compound: COc1cccc(CNC(=O)c2nc3scc(COCc4ccc(C(=O)O)cc4)c3c(=O)[nH]2)c1
Concentration: 1 µM
FLT1 (Homo sapiens, UniProt P17948); cell-free assay, competition with immobilised ligand — remaining binding: 93.9%.
The remaining binding was 88.2% (CAMK1 (Homo sapiens, UniProt Q14012); cell-free assay, competition with immobilised ligand).
The remaining binding was 93.7% (FLT3 (Homo sapiens, UniProt P36888, ITD); cell-free assay, competition with immobilised ligand).
It gave 66.1% for remaining binding (EGFR (Homo sapiens, UniProt P00533, del747-752/P753S); cell-free assay, competition with immobilised ligand).
RIOK3 (Homo sapiens, UniProt O14730); cell-free assay, competition with immobilised ligand — remaining binding: 63.2%.
Aurora kinase A (AURKA, Homo sapiens, UniProt O14965); cell-free assay, competition with immobilised ligand — remaining binding: 80.9%.
BLK (Homo sapiens, UniProt P51451); cell-free assay, competition with immobilised ligand — remaining binding: 100%.
CSNK1E (Homo sapiens, UniProt P49674); cell-free assay, competition with immobilised ligand — remaining binding: 100%.
For SIK1 (Homo sapiens, UniProt P57059); competition binding: remaining binding read 100%.
The remaining binding was 100% (DCLK2 (Homo sapiens, UniProt Q8N568); cell-free assay, competition with immobilised ligand).
The remaining binding was 83.8% (NEK4 (Homo sapiens, UniProt P51957); cell-free assay, competition with immobilised ligand).
RET (Homo sapiens, UniProt P07949, M918T); cell-free assay, competition with immobilised ligand — remaining binding: 89.5%.
For ALK (Homo sapiens, UniProt Q9UM73, C1156Y); cell-free assay, competition with immobilised ligand: remaining binding read 100%.

Further values, each from its own experiment
Method: cross-linking MS
Under interaction screen, `TMED2 (Homo sapiens, UniProt Q15363)` is recorded as “cross-linked” (TMED4 (Homo sapiens, UniProt Q7Z7H5); hits only).
`ADAR (Homo sapiens, UniProt P55265)`: cross-linked residues “K1120 to E1187” (CLTC (Homo sapiens, UniProt Q00610); cell fractions; with: DMTMM).
Under interaction screen, `H2AZ1 (Homo sapiens, UniProt P0C0S5)` is recorded as “cross-linked” (AKAP11 (Homo sapiens, UniProt Q9UKA4); hits only).
`EPB41 (Homo sapiens, UniProt P11171)`: cross-linked residues “K639 to S317” (CCT8 (Homo sapiens, UniProt P50990); cell fractions; with: DSSO).

Excerpt of the above (set 3):
The remaining binding was 93.7% (FLT3 (Homo sapiens, UniProt P36888, ITD); cell-free assay, competition with immobilised ligand).
RIOK3 (Homo sapiens, UniProt O14730); cell-free assay, competition with immobilised ligand — remaining binding: 63.2%.
FLT1 (Homo sapiens, UniProt P17948); cell-free assay, competition with immobilised ligand — remaining binding: 93.9%.
